# Assay results from different studies.
# Protocols differ between the studies behind these lines.
# Sequence of UniProt O75716 (whole entry, looked up): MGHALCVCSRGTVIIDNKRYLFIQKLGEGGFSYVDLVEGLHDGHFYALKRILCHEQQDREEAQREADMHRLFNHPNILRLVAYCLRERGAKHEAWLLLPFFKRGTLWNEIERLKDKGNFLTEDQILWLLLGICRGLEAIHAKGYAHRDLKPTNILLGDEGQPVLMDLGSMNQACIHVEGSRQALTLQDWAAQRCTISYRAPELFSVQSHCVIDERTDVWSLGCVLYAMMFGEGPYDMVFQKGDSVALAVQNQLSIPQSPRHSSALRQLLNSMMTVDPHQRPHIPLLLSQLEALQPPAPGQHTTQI
# Sequence of UniProt P08069 (whole entry, looked up): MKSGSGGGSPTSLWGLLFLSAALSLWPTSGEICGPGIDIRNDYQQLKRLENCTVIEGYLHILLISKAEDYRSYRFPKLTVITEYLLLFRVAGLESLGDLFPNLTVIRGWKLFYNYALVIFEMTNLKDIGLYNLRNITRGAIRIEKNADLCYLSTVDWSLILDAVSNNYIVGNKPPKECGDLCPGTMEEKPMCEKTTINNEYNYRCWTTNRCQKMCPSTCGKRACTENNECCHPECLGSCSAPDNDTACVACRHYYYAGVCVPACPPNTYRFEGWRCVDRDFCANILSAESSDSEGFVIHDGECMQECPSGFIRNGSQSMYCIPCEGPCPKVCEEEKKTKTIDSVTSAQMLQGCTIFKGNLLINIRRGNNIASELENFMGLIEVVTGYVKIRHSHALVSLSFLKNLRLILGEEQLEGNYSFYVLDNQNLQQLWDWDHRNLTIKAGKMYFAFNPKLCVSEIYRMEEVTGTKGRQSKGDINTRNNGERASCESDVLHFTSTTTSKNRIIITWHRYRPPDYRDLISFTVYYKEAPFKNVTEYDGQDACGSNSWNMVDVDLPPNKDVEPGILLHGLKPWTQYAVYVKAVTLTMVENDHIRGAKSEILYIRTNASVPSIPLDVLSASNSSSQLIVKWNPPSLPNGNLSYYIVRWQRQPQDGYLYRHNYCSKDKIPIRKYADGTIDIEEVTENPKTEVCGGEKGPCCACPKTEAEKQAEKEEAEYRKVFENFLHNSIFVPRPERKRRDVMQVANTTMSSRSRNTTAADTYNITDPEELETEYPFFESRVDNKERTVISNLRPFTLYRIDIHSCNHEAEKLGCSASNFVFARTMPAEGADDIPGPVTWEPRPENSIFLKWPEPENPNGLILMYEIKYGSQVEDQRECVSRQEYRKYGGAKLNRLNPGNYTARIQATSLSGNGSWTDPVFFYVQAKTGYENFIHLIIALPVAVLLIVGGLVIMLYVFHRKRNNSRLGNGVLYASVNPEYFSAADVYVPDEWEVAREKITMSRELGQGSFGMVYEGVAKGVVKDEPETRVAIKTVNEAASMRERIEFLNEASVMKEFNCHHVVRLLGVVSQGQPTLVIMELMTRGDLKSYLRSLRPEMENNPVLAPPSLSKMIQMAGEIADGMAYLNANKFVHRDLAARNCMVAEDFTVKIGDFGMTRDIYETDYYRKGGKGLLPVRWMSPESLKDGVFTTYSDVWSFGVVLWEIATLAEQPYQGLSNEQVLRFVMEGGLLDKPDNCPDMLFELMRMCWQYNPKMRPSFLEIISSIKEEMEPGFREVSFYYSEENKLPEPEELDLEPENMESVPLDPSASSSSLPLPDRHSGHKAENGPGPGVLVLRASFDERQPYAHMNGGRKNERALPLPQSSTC
SMILES,tested on,test,test system,conditions,quantity,result
CC[C@@](O)(c1ccc(C(F)(F)F)nc1)c1c2ccn(C3CC3)c(=O)c2nn1C,,metabolic stability,"human, hepatocytes","0.5 µM, pH 7.4",hepatocyte CLint,2.4 µL/min/10⁶ cells
CNc1ncc2c(/C=C/C(=O)N3CCC(OC)CC3)nn(Cc3cccc(C(F)(F)F)c3)c2n1,"IGF1R (Homo sapiens, UniProt P08069)","enzyme activity, inhibitor, radiometric",,1 µM,remaining activity,94%
COc1ccc2nc(-c3cc(N(C)C)ccn3)c(Nc3ccc(F)cc3)n2c1,,metabolic stability,"rat, hepatocytes",,hepatocyte CLint,> 300 µL/min/10⁶ cells
Cc1nn(C2CC2)c(=O)c2nn(C)c(Cc3ccc(C(F)(F)F)c(C#N)c3)c12,,metabolic stability,"human, hepatocytes","0.5 µM, pH 7.4",hepatocyte CLint,1.5 µL/min/10⁶ cells
CCc1nn(C)c2nc(-c3ccc(C(=O)O)cc3)nc(NCc3ccc(F)cc3)c12,,,,,logP,4.7
Cn1nc2c(=O)n(C3CC3)ccc2c1[C@](O)(c1cnc(C(F)(F)F)c(Cl)c1)C(F)(F)F,,,Caco-2,,Papp A→B,46 ×10⁻⁶ cm/s
N=C(N)c1ccc(OCc2cc(Br)cc(COc3ccc(C(=N)N)cc3)c2)cc1,,haemolysis,sheep,"200 µg/mL, 1 h",haemolysis,0.6%
CCc1cc(-c2noc(-c3cc(OC)nc(C4CCCC4)c3)n2)cc(C)c1OC[C@@H](O)CO,,,"Wistar rat, plasma","oral, 10 mg/kg, 48 h, single dose",concentration,149 ng/mL
c1ccc(-c2nc(NCCn3cnc4ccccc43)c3ccccc3n2)nc1,,,PAMPA,"10 µM, 3 h, pH 7.4",Papp,24.2 ×10⁻⁶ cm/s
COc1ccc([C@@H]2CN(C(=O)[C@@H](O)CO)C[C@@]2(C)[C@@H](C)O)cc1OC1CN(c2ccc(C)cn2)C1,,,"human, plasma","oral, 20 mg, single dose, healthy volunteers",Cmax,482 ng/mL
NCCOCC(=O)N1CCC[C@H](C(=O)NCc2nc(-c3ccc(C(F)(F)F)cc3)cs2)C1,,metabolic stability,"human, liver microsomes",0.5 µM,scaled CLint,< 3.5 mL/min/kg
CC[C@H](C)[C@@H]1NC(=O)[C@@](C)(NC(=O)[C@H](CCCNC(=N)N)NC(=O)[C@H](CC(C)C)NC(=O)[C@@H](NC(=O)[C@H](CCC(N)=O)NC(=O)[C@H](CC(C)C)NC(C)=O)[C@@H](C)O)CCCC=CCCC[C@@](C)(C(=O)N[C@@H](CC(C)C)C(=O)N[C@@H](Cc2ccc3ccccc3c2)C(N)=O)NC(=O)[C@H](CCCNC(=N)N)NC(=O)[C@H](CCC(N)=O)NC1=O,,,"male BALB/c mouse, plasma","intravenous, 15 mg/kg",AUC(0-inf),260000 ng·h/mL
N=C(N)c1ccc(OCc2ccc(-c3ccccc3)cc2COc2ccc(C(=N)N)cc2)cc1,,haemolysis,sheep,"200 µg/mL, 1 h",haemolysis,30%
CNC(=O)c1cc(OC)cc2c(N3CCc4c(cc(Cn5ccnc5)cc4-c4cn(C)nc4C(F)(F)F)C3=O)ccnc12,,,"male CD-1 mouse, plasma","intravenous, 3 mg/kg",MRT(0-inf),0.4 h
COc1cc(C(=O)NC2CCN(C)CC2)c(F)cc1Nc1ncc(C(F)(F)F)c(Oc2cccc3c2C(=O)N(C)C3)n1,,,"human, plasma","oral, 300 mg, multiple doses, once daily, patients",Vd/F,200 L
CCOC(=O)[C@@]12C[C@@H]1[C@@H](n1ccc3c(NC)nc(C#Cc4ccc(Cl)s4)nc31)[C@H](O)[C@@H]2O,,,"male Sprague-Dawley rat, plasma","oral, 10 mg/kg, 1 h",concentration,124 ng/mL
N=C(N)c1ccc(OCc2ccc3ccc(COc4ccc(C(=N)N)cc4)cc3c2)cc1,,haemolysis,sheep,"200 µg/mL, 1 h",haemolysis,2.6%
COc1ccc([C@@H](O)c2cc(-c3ncnc4cc(N5CCOCC5)ccc34)c(F)cc2Cl)nn1,,,"human, plasma","oral, 300 mg, multiple doses, twice daily, patients",Cmax,2360 ng/mL
CC[C@@](O)(c1cnc(C(F)(F)F)c(Cl)c1)c1c2cnn(C3CC3)c(=O)c2nn1C,,metabolic stability,"male Sprague-Dawley rat, hepatocytes","0.5 µM, pH 7.4",hepatocyte CLint,0.7 µL/min/10⁶ cells
O=C(Nc1ccc(CN2CCOCC2)c(C(F)(F)F)c1)c1ccc(C#Cc2cccc3cnccc23)cn1,,,Caco-2,,Papp A→B,1.11 ×10⁻⁶ cm/s
Cn1ccnc1-c1nc(N2CCCCC2)c2ccccc2n1,,metabolic stability,"mouse, liver microsomes",,microsomal CLint,241 µL/min/mg
COc1cccc(-c2n[nH]c(SCc3ccccn3)n2)c1OC,,,"male Sprague-Dawley rat, plasma","oral, 30 mg/kg, 15 min, single dose",concentration,44900 ng/mL
Cc1ncsc1-c1ccc(CNC(=O)[C@@H]2C[C@@H](O)CN2C(=O)[C@@H](NC(=O)CCCCCCCCCCNC(=O)O[C@H]2C[C@@H](C)C=C3C=C[C@H](C)[C@H](CC[C@@H]4C[C@@H](O)CC(=O)O4)[C@H]32)C(C)(C)C)cc1,,,"C57BL/6 mouse, plasma","oral, 60 mg/kg, single dose",MRT(0-t),8.8 h
O=C(c1ccc(F)cc1)C1CCN(CCn2c(=O)[nH]c3ccccc3c2=O)CC1,,metabolic stability,"dog, liver microsomes",45 min,compound remaining,45.1%
NCc1cc2c(cc1F)C(=O)N(C1CCC(=O)NC1=O)C2 (stereo not shown),,,"male CD-1 mouse, plasma","intravenous, 1 mg/kg, 15 min",concentration,56.5 ng/mL
COc1ccc2c(c1)CN(C(=O)CCN1CCC(Cc3ccccc3)CC1)CC[S@@+]2[O-],,,"male human, plasma","intravenous, 0.4 mg/kg, single dose, healthy volunteers",half-life,4.48 h
CC[C@@](N)(c1cnc(C(F)(F)F)c(Cl)c1)c1c2ncn(C3CC3)c(=O)c2nn1C,,metabolic stability,"male Sprague-Dawley rat, hepatocytes","0.5 µM, pH 7.4",hepatocyte CLint,< 0.5 µL/min/10⁶ cells
O=C(COc1ccc(Cl)cc1)NC12CC(c3nnc([C@H]4C[C@@H](OC(F)(F)F)C4)o3)(C1)C2,,,"human, plasma","oral, 15 mg, single dose, fasted, healthy volunteers",half-life,31.7 h
CC/C(=C(\c1ccc(O)cc1)c1ccc(OCCNC)cc1)c1ccccc1,,,"female C57BL/6 mouse, plasma","oral, 1 mg/kg, single dose",Cmax,1 ng/mL
Cn1nccc1-c1nc(N2CCC(c3ccccn3)C2)c2ccccc2n1 (stereo not shown),,metabolic stability,"mouse, liver microsomes",,microsomal CLint,365 µL/min/mg
O=C(N1CCCCC1)C12CC(c3ccccc3)(C1)C2,,metabolic stability,"human, liver microsomes","2 µM, 15 min, pH 7.4",compound remaining,95%
Cc1cccc(CNc2nc(-c3ccccn3)nc3ccccc23)n1,,,PAMPA,"10 µM, 3 h, pH 7.4",Papp,23.6 ×10⁻⁶ cm/s
CCOC(=O)C1=C(CN2CCC[C@@H]2C(=O)Nc2ccc(B(O)O)cc2)NC(c2nccs2)=N[C@H]1c1ccc(F)cc1Br,,,"CD-1 mouse, plasma","oral, 10 mg/kg",MRT(0-t),0.81 h
NC(=O)C1CCN(c2nc(-c3ccccn3)nc3ccccc23)C1 (stereo not shown),,metabolic stability,"mouse, liver microsomes",,microsomal CLint,175 µL/min/mg
COc1cc(-c2cncc3c2CN(C)Cc2cc(N4CCNCC4)ccc2-3)cc(OC)c1OC,"STK16 (Homo sapiens, UniProt O75716)","enzyme activity, inhibitor",,1 µM,remaining activity,108%
c1ccc(CCNc2nc(-c3ccccn3)nc3ccccc23)nc1,,,PAMPA,"10 µM, 3 h, pH 7.4",Papp,20 ×10⁻⁶ cm/s
COCC(=O)N1CCC[C@H](C(=O)NCc2nc(-c3ccc(C#N)cc3)cs2)C1,,metabolic stability,"male Sprague-Dawley rat, liver microsomes",0.5 µM,microsomal CLint,17 µL/min/mg
O=C1CC[C@H](N2Cc3cc(N4CCN(CC5CCN(c6ccc([C@@H]7c8ccc(O)cc8CC[C@@H]7c7ccccc7)cc6)CC5)CC4)ccc3C2=O)C(=O)N1,,,"female Sprague-Dawley rat, plasma","oral, 20 mg/kg, fed",AUC(0-inf),18400 ng·h/mL
CC(C)NCCOCC(=O)N1CCC[C@H](C(=O)NCc2nc(-c3ccc(C(F)(F)F)cc3)cs2)C1,,metabolic stability,"male Sprague-Dawley rat, liver microsomes",0.5 µM,microsomal CLint,19 µL/min/mg
N=C(N)c1ccccc1OCc1ccc(COc2ccccc2C(=N)N)cc1,,haemolysis,sheep,"200 µg/mL, 1 h",haemolysis,0%
O=c1c2c([nH]c3cc(Oc4ccc(OC(F)(F)F)cc4)c(F)cc13)CCCC2,,metabolic stability,"mouse, liver microsomes","1 µM, pH 7.4",microsomal CLint,105 µL/min/mg
O=C(NC1(C(F)(F)F)CC1)c1ccccc1,,,water,24 h,logP,1.9
CCN1CCN(Cc2ccc(NC(=O)c3ccc(C)c(NC(=O)c4cncc(-c5cccs5)c4)c3)cc2C(F)(F)F)CC1,,,"mouse, plasma","intraperitoneal, 10 mg/kg, single dose",AUC(0-t),1120 ng·h/mL
CC(C)(O)c1ccccc1CC[C@@H](SCC1(CC(=O)O)CC1)c1cccc(/C=C/c2ccc3ccc(Cl)cc3n2)c1,,,"human, hepatocytes","4 h, pH 7.4",fraction unbound,0.0015
c1ccc(-c2nc(NCCn3ccnc3)c3ccccc3n2)nc1,,metabolic stability,"mouse, liver microsomes",,microsomal CLint,52 µL/min/mg
N#C[C@@]12C[C@@H]1[C@@H](n1cnc3c(N[C@@H](C4CCC4)C4CC4)nc(I)nc31)[C@H](O)[C@@H]2O,,,"male Wistar rat, plasma","oral, 10 mg/kg",MRT(0-t),2.33 h

# For quick reference, copied from above:
SMILES,tested on,test,test system,conditions,quantity,result
Cc1cccc(CNc2nc(-c3ccccn3)nc3ccccc23)n1,,,PAMPA,"10 µM, 3 h, pH 7.4",Papp,23.6 ×10⁻⁶ cm/s
CCc1nn(C)c2nc(-c3ccc(C(=O)O)cc3)nc(NCc3ccc(F)cc3)c12,,,,,logP,4.7
COc1ccc2nc(-c3cc(N(C)C)ccn3)c(Nc3ccc(F)cc3)n2c1,,metabolic stability,"rat, hepatocytes",,hepatocyte CLint,> 300 µL/min/10⁶ cells
CC[C@@](O)(c1cnc(C(F)(F)F)c(Cl)c1)c1c2cnn(C3CC3)c(=O)c2nn1C,,metabolic stability,"male Sprague-Dawley rat, hepatocytes","0.5 µM, pH 7.4",hepatocyte CLint,0.7 µL/min/10⁶ cells
